Experimental data collected from several papers.
Parts stem from different laboratories: compare values within a part only. Values joined by “and” are separate records of one study, mostly repeats; a detail may differ.
UniProt P37173, sequence (whole entry, looked up): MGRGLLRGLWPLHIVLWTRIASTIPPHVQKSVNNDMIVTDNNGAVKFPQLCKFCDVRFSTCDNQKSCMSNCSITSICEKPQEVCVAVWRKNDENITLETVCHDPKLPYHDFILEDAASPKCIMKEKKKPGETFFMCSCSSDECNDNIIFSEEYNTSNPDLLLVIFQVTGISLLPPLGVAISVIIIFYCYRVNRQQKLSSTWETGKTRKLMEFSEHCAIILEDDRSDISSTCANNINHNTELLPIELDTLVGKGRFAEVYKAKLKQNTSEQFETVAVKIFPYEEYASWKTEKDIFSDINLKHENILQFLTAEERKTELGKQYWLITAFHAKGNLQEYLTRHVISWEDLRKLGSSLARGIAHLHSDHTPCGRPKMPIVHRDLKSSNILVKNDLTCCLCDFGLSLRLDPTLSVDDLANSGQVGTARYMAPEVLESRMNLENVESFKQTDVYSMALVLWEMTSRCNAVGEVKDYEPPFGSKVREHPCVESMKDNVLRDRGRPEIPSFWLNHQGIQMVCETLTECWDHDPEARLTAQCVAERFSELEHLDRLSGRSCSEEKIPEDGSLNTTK
UniProt O15197, sequence (whole entry, looked up): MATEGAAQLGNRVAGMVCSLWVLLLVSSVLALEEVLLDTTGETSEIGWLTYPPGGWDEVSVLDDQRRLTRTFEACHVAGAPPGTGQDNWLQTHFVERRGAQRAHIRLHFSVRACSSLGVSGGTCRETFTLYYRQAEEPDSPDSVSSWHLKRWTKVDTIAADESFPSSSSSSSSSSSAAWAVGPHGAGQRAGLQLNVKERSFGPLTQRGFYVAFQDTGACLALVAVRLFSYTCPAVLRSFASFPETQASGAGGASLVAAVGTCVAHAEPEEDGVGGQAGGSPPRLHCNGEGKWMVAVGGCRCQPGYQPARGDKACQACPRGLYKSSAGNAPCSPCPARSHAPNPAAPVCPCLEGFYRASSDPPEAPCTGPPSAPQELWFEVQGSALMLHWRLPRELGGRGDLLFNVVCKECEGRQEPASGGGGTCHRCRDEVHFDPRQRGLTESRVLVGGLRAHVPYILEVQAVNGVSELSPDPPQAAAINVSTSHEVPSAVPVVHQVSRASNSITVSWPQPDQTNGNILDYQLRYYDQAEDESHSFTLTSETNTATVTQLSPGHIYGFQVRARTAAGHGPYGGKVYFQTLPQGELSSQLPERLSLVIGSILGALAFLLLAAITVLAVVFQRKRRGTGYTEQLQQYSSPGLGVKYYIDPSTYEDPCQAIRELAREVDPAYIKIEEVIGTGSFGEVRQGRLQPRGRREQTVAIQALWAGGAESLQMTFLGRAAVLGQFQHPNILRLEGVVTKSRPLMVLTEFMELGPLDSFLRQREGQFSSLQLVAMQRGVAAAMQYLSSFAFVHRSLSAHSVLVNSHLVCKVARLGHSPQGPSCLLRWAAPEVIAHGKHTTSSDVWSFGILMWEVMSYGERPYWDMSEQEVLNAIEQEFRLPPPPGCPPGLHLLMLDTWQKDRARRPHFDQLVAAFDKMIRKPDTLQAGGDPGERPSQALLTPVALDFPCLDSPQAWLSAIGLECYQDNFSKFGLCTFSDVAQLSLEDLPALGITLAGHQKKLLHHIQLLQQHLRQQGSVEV
UniProt O95819, sequence (whole entry, looked up): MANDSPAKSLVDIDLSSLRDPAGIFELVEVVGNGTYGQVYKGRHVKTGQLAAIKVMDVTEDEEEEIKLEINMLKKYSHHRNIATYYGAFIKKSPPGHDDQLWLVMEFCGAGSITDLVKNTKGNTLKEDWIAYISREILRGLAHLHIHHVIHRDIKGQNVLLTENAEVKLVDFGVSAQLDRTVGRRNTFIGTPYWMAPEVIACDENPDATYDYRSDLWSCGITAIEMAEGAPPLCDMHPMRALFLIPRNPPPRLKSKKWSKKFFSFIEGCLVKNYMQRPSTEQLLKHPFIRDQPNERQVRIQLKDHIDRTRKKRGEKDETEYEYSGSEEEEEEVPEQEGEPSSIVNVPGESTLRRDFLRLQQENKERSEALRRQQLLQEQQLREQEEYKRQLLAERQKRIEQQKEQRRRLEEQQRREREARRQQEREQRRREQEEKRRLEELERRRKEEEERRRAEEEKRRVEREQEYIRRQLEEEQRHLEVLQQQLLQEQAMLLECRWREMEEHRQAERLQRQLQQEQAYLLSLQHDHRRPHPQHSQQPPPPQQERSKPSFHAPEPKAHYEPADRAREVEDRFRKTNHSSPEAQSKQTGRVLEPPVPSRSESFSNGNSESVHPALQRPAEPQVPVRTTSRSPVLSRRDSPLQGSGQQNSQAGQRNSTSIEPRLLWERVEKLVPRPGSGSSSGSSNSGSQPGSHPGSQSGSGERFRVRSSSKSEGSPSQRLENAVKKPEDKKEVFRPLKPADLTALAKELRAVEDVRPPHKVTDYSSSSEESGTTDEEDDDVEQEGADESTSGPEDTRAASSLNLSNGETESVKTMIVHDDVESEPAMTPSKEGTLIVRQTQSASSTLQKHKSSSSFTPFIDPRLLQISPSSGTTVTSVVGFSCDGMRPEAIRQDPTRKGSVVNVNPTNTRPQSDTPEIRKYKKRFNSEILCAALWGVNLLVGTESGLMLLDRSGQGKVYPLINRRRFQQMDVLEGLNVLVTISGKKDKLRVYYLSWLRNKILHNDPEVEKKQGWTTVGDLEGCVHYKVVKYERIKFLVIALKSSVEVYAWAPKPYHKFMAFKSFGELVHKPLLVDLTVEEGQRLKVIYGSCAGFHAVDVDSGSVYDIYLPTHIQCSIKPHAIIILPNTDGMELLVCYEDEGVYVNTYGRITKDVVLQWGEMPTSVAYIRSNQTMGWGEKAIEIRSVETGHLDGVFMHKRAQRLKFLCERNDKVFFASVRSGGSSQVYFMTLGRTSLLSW
UniProt Q59H18, sequence (whole entry, looked up): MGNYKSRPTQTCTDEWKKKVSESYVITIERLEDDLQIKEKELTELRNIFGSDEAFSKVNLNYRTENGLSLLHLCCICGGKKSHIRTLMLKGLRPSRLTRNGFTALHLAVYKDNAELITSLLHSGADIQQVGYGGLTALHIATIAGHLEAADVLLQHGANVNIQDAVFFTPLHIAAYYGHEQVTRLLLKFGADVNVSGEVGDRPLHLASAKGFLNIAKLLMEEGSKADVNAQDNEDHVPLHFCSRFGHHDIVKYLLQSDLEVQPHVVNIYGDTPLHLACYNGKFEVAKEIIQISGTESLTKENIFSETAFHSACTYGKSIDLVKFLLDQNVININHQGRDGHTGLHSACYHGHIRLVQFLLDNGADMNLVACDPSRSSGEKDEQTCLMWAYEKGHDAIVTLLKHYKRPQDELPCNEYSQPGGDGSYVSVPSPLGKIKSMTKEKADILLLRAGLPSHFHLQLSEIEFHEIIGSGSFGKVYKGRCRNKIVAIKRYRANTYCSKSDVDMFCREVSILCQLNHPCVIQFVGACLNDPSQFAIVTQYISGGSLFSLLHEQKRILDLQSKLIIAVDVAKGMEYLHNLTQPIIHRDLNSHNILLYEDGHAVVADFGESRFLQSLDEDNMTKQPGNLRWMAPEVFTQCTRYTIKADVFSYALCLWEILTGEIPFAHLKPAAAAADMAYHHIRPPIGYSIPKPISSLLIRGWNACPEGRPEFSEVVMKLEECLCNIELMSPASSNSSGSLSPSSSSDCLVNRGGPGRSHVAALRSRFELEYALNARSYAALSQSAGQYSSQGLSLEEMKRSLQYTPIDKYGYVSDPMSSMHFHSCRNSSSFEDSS
UniProt P07948, sequence (whole entry, looked up): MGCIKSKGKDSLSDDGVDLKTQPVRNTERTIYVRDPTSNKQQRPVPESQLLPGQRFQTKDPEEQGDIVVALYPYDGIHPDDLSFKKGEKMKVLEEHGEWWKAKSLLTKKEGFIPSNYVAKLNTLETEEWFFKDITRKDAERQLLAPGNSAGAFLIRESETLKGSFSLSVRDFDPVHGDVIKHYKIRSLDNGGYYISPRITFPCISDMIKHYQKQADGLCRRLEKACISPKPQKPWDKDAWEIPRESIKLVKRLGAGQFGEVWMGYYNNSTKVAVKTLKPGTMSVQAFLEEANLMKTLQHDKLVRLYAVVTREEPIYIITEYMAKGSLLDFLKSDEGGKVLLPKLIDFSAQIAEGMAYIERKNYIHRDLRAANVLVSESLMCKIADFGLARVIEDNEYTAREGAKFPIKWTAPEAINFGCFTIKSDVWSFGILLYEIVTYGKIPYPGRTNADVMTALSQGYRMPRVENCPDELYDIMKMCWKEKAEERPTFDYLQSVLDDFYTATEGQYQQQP

Set 1
Cell line: A-375
Concentration: 100 µM
Time: 36 h
| SMILES | viability |
| --- | --- |
| CC1=C(C/C=C(\C)CCC[C@H](C)CCC[C@H](C)CCCC(C)C)C(=O)c2ccccc2C1=O | 106% |
| COCCCC/C(=N\OCCN)c1ccc(C(F)(F)F)cc1 | -1.08% |
| CC(C)NCC(O)COc1cccc2[nH]ccc12 (stereo not shown) | 103% |
| Cc1c(OCC(F)(F)F)ccnc1C[S+]([O-])c1nc2ccccc2[nH]1 (stereo not shown) | 73.6% |
| NC(=O)N1c2ccccc2C=Cc2ccccc21 | 83% |
| O=C(Nc1cccc2c(=O)cc(-c3nnn[nH]3)oc12)c1ccc(OCCCCc2ccccc2)cc1 | 26.8% |
| Cn1c(=O)c2c(ncn2CC(O)CO)n(C)c1=O (stereo not shown) | 98% |
| CCC[C@@H]1C[C@@H](C(=O)N[C@@H]([C@H]2O[C@H](SC)[C@H](O)[C@@H](O)[C@H]2O)[C@@H](C)O)N(C)C1 | 100% and 97.6% |
| CC(=O)N1CCN(c2ccc(OC[C@@H]3CO[C@@](Cn4ccnc4)(c4ccc(Cl)cc4Cl)O3)cc2)CC1 (racemic) | -0.0191% |
| C/C=C(/C(=C/C)c1ccc(O)cc1)c1ccc(O)cc1 | -2.17% |
| Nc1ccc(S(=O)(=O)Nc2nccs2)cc1 | 102% |
| Cn1cnc2c1c(=O)[nH]c(=O)n2C | 99.3% |

Set 2
Target: SRSF protein kinase 2 (SRPK2, Homo sapiens, UniProt P78362)
UniProt P78362, sequence (whole entry, looked up): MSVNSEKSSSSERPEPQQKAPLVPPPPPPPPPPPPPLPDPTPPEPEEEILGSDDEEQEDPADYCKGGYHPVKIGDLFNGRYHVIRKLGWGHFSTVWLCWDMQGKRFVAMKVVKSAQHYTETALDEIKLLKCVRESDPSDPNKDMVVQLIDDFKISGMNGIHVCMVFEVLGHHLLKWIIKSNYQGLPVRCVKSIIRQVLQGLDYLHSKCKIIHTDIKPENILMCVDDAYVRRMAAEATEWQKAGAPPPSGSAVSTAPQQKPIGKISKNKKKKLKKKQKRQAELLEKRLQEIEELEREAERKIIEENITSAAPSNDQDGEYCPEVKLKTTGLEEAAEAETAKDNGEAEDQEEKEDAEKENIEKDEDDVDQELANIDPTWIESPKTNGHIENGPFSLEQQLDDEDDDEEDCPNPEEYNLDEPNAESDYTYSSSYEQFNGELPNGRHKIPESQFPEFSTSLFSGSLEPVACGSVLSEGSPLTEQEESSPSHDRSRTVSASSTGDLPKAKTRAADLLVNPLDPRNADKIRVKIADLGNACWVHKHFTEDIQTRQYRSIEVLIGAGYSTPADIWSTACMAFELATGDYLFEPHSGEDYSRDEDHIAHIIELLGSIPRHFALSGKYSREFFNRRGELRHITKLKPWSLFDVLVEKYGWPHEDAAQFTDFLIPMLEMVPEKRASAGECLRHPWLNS
Read-out: enzyme activity
Mode: inhibitor
Concentration: 0.5 µM
Relative to: control
| SMILES | remaining activity |
| --- | --- |
| COc1ccc(Cl)cc1NC(=O)Nc1cc(C)nc2ccccc12 | 94.9% |
| Nc1[nH]nc2nnc(-c3c(-c4ccccc4)nn4ccccc34)cc12 | 73.8% |
| CS(=O)(=O)CCNCc1ccc(-c2ccc3ncnc(Nc4ccc(OCc5cccc(F)c5)c(Cl)c4)c3c2)o1 | 88% |
| O=C(Nc1ccc(Cl)cc1)c1ccccc1NCc1ccncc1 | 85.1% |
| C[S+]([O-])c1ccc(-c2nc(-c3ccncc3)c(-c3ccc(F)cc3)[nH]2)cc1 (stereo not shown) | 102% |
| COc1cc2ncnc(Nc3ccc(OCc4ccccc4)cc3)c2cc1OC | 92.3% |
| Cn1cc(/C=C2\C(=O)Nc3ccc(S(N)(=O)=O)cc32)c2ccccc21 | 51.4% |
| CN(C)CCCn1cc(C2=C(c3c[nH]c4ccccc34)C(=O)NC2=O)c2ccccc21 | 94.4% |
| COc1cc2ncc(-c3ccccc3)nc2cc1OC | 84.4% |
| Cc1ccc(NC(=O)c2ccc(CN3CCN(C)CC3)cc2)cc1Nc1nccc(-c2cccnc2)n1 | 104% |
| COc1ccc(-c2cnc3c(-c4ccsc4)cnn3c2)cc1 | 94.1% |
| CC(C)[C@H](CO)Nc1nc(Nc2cccc(Cl)c2)c2ncn(C(C)C)c2n1 | 53.6% |
| CCC(=O)Nc1ccc2ncnc(Nc3cccc(Br)c3)c2c1 | 88.6% |
| Cn1cnc2cc3c(Nc4cccc(Br)c4)ncnc3cc21 | 97.1% |
| CCOc1cc2ncnc(Nc3cccc(Br)c3)c2cc1OCC | 95.6% |
| O=C1NC(=O)/C(=C/c2ccc3nccnc3c2)S1 | 98.2% |
| COc1cc2ncnc(N3CCN(C(=O)Nc4ccc(Oc5ccccc5)cc4)CC3)c2cc1OC | 89.1% |
| O=c1cc(N2CCOCC2)oc2c1ccc1ccccc12 | 100% |
| Cc1nc(Nc2ncc(C(=O)Nc3c(C)cccc3Cl)s2)cc(N2CCN(CCO)CC2)n1 | 104% |
| CC(=O)O/N=C1/C(c2c(O)[nH]c3cc(Br)ccc23)=Nc2ccccc21 | 96.6% |
| CC(C)c1nn(-c2c(Cl)cccc2Cl)c2nc(Cc3ccc(OCCO)cc3)[nH]c(=O)c12 | 89.2% |
| CCN1/C(=C/C(C)=O)Sc2ccc(OC)cc21 | 95.8% |

Set 3
Cell line: mouse MPNST tumor cells
Technique: high-content nuclear imaging
Item: cell number
Concentration: 10 µM
Time: 12 h
Notes: mean of 2 replicates
Relative to: plate mean
Direction: higher = more cells
| Compound | nuclei count |
| --- | --- |
| COc1cc(C(C)C)c2c(c1)S(=O)(=O)N(COc1cc(=O)n3cccc(OCCN4CCCCC4)c3n1)C2=O | -2.95 z-score |
| CCN(CCO)CCCC(C)Nc1ccnc2cc(Cl)ccc12 (stereo not shown) | 1.47 z-score and 2.87 z-score |
| CN1CCCN(C(c2ccccc2)c2ccc(Cl)cc2)CC1 (stereo not shown) | -6.97 z-score |
| NCCCCCCCCCCNS(=O)(=O)c1cccc2c(Cl)cccc12 | -2.23 z-score |
| CCOC(=O)Nc1ccc2c(c1)N(C(=O)CN(CC)CC)c1ccccc1CC2 | 0.606 z-score |
| C[N+](C)(C)CCCCCNCC12CC3CC(CC(C3)C1)C2 | 0.839 z-score |
| CN(C)CCOc1ccc(/C(=C(/CCCl)c2ccccc2)c2ccccc2)cc1 | -4.84 z-score |
| CCCOc1cc(N)ccc1C(=O)OCCN(CC)CC | 0.184 z-score |
| C[N+]1(CC2CCCCCC2)CCC(NC(=O)C2c3cc(Cl)ccc3Oc3ccc(Cl)cc32)CC1 (stereo not shown) | -0.109 z-score |
| Nc1ncnc2c1nc(Br)n2[C@@H]1O[C@@H]2COP(=O)(O)O[C@H]2[C@H]1O | 1.58 z-score |
| CCOC(=O)OC(C)OC(=O)[C@@H]1N2C(=O)[C@@H](NC(=O)[C@H](N)c3ccccc3)[C@H]2SC1(C)C (stereo partly shown) | -0.858 z-score |
| CC1(C)CCC(CN2CCN(c3ccc(C(=O)NS(=O)(=O)c4ccc(NCC5CCOCC5)c([N+](=O)[O-])c4)c(Oc4cnc5[nH]ccc5c4)c3)CC2)=C(c2ccc(Cl)cc2)C1 | 0.0458 z-score |
| O=C(NCCCN1CCOCC1)c1cnn2c(-c3ccccc3)cc(-c3ccccc3)nc12 | 4.72 z-score |
| CC(C)Cn1c(=O)n(C)c(=O)c2[nH]cnc21 | 0.246 z-score |
| COc1cc(OC)cc(-c2ccc3c(-c4ccc(F)cc4)[nH]nc3n2)c1 | 0.343 z-score |
| CCCCOC(=O)c1ccc(N)cc1 | 1.06 z-score |
| Nc1ccc(S(=O)(=O)Nc2ncccn2)cc1 | 0.433 z-score |
| COc1cc([C@@H]2c3cc4c(cc3[C@@H](O[C@@H]3O[C@@H]5CO[C@@H](C)O[C@H]5[C@H](O)[C@H]3O)[C@H]3COC(=O)[C@H]23)OCO4)cc(OC)c1O | -2.93 z-score and -3.33 z-score |
| COc1cc(Cc2cnc(N)nc2N)c(C(C)C)cc1OC | 4.13 z-score |

Set 4
Compound: O=C(NCc1ncc(C(F)(F)F)cc1Cl)c1ccc2c(c1)C1(CCS(=O)(=O)CC1)[C@@H](C1CC1)N2S(=O)(=O)c1ccc(F)cc1
Read-out: cell-free assay
Technique: competition with immobilised ligand
Concentration: 1 µM
| target | remaining binding |
| --- | --- |
| MAP4K4 (Homo sapiens, UniProt O95819) | 100% |
| AXL (Homo sapiens, UniProt P30530) | 100% |
| LTK (Homo sapiens, UniProt P29376) | 81% |
| LYN (Homo sapiens, UniProt P07948) | 100% |
| CLK1 (Homo sapiens, UniProt P49759) | 100% |
| STK3 (Homo sapiens, UniProt Q13188) | 87% |
| Tyrosine-protein kinase JAK2, JH1 (JAK2, Homo sapiens, UniProt O60674) | 70% |
| TGFBR2 (Homo sapiens, UniProt P37173) | 71% |
| FLT3 (Homo sapiens, UniProt P36888, F691L/ITD) | 58% |
| TNNI3K (Homo sapiens, UniProt Q59H18) | 100% |
| DDR1 (Homo sapiens, UniProt Q08345) | 100% |
| EPHB6 (Homo sapiens, UniProt O15197) | 94% |
| RAF1 (Homo sapiens, UniProt P04049) | 100% |
| BMX (Homo sapiens, UniProt P51813) | 92% |

Some of these lines once more (set 4):
| target | remaining binding |
| --- | --- |
| STK3 (Homo sapiens, UniProt Q13188) | 87% |
| Tyrosine-protein kinase JAK2, JH1 (JAK2, Homo sapiens, UniProt O60674) | 70% |
| TGFBR2 (Homo sapiens, UniProt P37173) | 71% |
| FLT3 (Homo sapiens, UniProt P36888, F691L/ITD) | 58% |
| TNNI3K (Homo sapiens, UniProt Q59H18) | 100% |
| DDR1 (Homo sapiens, UniProt Q08345) | 100% |
| EPHB6 (Homo sapiens, UniProt O15197) | 94% |
| RAF1 (Homo sapiens, UniProt P04049) | 100% |
